Published values gathered from unrelated publications.
“And” joins repeats or separate records; there may be more than shown. ± marks the error that the study gave. Values after ≈ are worked out from the molar mass of the structure shown.

C=C(NC(=O)c1csc(-c2nc3c(cc2O)-c2nc(cs2)C(=O)NC(C(C)O)C(=O)NC(=C(C)OC)c2nc(cs2)C(=O)NC2c4nc(cs4)C(=O)NC(COC(=O)c4c5c6c(cccc6n4O)COC(=O)C(OC4CC(C)(O)C(N(C)C)C(C)O4)C2OC5)c2nc-3cs2)n1)C(N)=O (stereo not drawn)  MIC50 (Enterococcus faecium; microbial growth; clinical isolate): 0.0156 µg/mL (≈ 0.0109 µM)
COC1OC(C)C(O)C(OC2OC(C)C(O)C(OC3OC(C)C(O)C(OC4OC(C)C(O)C(OS(=O)(=O)O)C4OS(=O)(=O)O)C3OS(=O)(=O)O)C2OS(=O)(=O)O)C1OS(=O)(=O)O (stereo not drawn)  thrombin time prolongation (human plasma; 128 µg/mL; reference: control): 1 fold
CN1CCCNC(=O)c2cccc(c2)C(=O)NCCCN(C)CCCNc2cccc3c2C(=O)c2cccc(c2C3=O)NCCC1  log2 fold change (SAS; RNA-Seq, item: SOD2 mRNA; 1 µM, 6 h; reference: untreated cells): -1.71
COC1OC(C)C(OC2OC(C)C(O)C(OC3OC(C)C(OC4OC(C)C(O)C(OC5OC(C)C(OC6OC(C)C(O)C(OC7OC(C)C(OC8OC(C)C(O)C(OC9OC(C)C(OC%10OC(C)C(O)C(OC%11OC(C)C(OC%12OC(C)C(O)C(OS(=O)(=O)O)C%12OS(=O)(=O)O)C(OS(=O)(=O)O)C%11OS(=O)(=O)O)C%10OS(=O)(=O)O)C(OS(=O)(=O)O)C9OS(=O)(=O)O)C8OS(=O)(=O)O)C(OS(=O)(=O)O)C7OS(=O)(=O)O)C6OS(=O)(=O)O)C(OS(=O)(=O)O)C5OS(=O)(=O)O)C4OS(=O)(=O)O)C(OS(=O)(=O)O)C3OS(=O)(=O)O)C2OS(=O)(=O)O)C(OS(=O)(=O)O)C1OS(=O)(=O)O (stereo not drawn)  thrombin time prolongation (human plasma; 128 µg/mL; reference: control): 1 fold
COC1CN([C@H]2CC[C@H]([C@@]3(C)Oc4c(Cl)cc(C(=O)NCc5c(SC)cc(C)[nH]c5=O)c(C)c4O3)CC2)C1  log2 fold change (RNA-seq, item: PHLDA1 mouse homolog; mouse, HT-1376 xenograft, whole blood; dose not given; reference: vehicle): 0.451
CNS(=O)(=O)Nc1nccc(Cc2c(C)c3ccc(Oc4ncccc4F)cc3oc2=O)c1F  IC50 (HMC-1-8; cell viability, CellTiter-Glo; 7 days): 10.1 nM
COc1cc2c(NC3CCN(C(C)C)CC3)cc(N3CCOCC3)nc2cc1OCCCN1CCCC1  normalised protein abundance (TMT quantitative proteomics, item: ALDOA; FAD AD model mice, hippocampus; dose not given): -0.014 and -0.0463 and -0.0488 and -0.043 and -0.0217 and -0.0326 and -0.0366 and -0.0449
Cc1ncsc1-c1ccc(C(C)NC(=O)C2CC(O)CN2C(=O)C(NC(=O)CCCCCCCCCCN2CCCC(Nc3ncc(Cl)c(Nc4ccccc4S(=O)(=O)C(C)C)n3)C2)C(C)(C)C)cc1 (stereo not drawn)  log2 fold change (22Rv1; RNA-seq, item: ZNF607 mRNA; concentration not given; reference: DMSO): -1.59
COC1OC(C)C(OS(=O)(=O)O)C(OC2OC(C)C(OS(=O)(=O)O)C(OC3OC(C)C(OS(=O)(=O)O)C(OC4OC(C)C(OS(=O)(=O)O)C(OC5OC(C)C(OS(=O)(=O)O)C(OC6OC(C)C(OS(=O)(=O)O)C(OS(=O)(=O)O)C6OS(=O)(=O)O)C5OS(=O)(=O)O)C4OS(=O)(=O)O)C3OS(=O)(=O)O)C2OS(=O)(=O)O)C1OS(=O)(=O)O (stereo not drawn)  thrombin time (human plasma; 128 µg/mL): 10.1 ± 1 s
c1ccc(-c2n[nH]cc2-c2ccnc3ccccc23)nc1  log2 fold change (KIN2 (Candida albicans); kinase binding, MIB/MS competition; Candida albicans lysate; 10 µM; reference: DMSO): -0.06
Nc1ncc(-c2cc(-c3cnn(CC(F)(F)F)c3)ncc2F)nc1C(=O)NC1CNCC(F)C1 (stereo not drawn)  remaining binding (ACVRL1; KINOMEscan; 1 µM; reference: DMSO control): 76%
COC1OC(C)C(OC2OC(C)C(O)C(OC3OC(C)C(OC4OC(C)C(O)C(OC5OC(C)C(OC6OC(C)C(O)C(OC7OC(C)C(OC8OC(C)C(O)C(OC9OC(C)C(OC%10OC(C)C(O)C(OS(=O)(=O)O)C%10OS(=O)(=O)O)C(OS(=O)(=O)O)C9OS(=O)(=O)O)C8OS(=O)(=O)O)C(OS(=O)(=O)O)C7OS(=O)(=O)O)C6OS(=O)(=O)O)C(OS(=O)(=O)O)C5OS(=O)(=O)O)C4OS(=O)(=O)O)C(OS(=O)(=O)O)C3OS(=O)(=O)O)C2OS(=O)(=O)O)C(OS(=O)(=O)O)C1OS(=O)(=O)O (stereo not drawn)  thrombin time (human plasma; 128 µg/mL): 10.3 ± 1.1 s
COc1cc(O)ccc1CCC(c1ccc(O)cc1)c1cc2c(c(C)c1O)OC(c1ccc(O)cc1)CC2 (mixture of isomers)  5-HETE level (human blood; 1 µM, together with: A23187): 4400 ± 1860 pg/mL
COC1OC(C)C(OC2OC(C)C(O)C(OC3OC(C)C(OC4OC(C)C(O)C(OC5OC(C)C(OC6OC(C)C(O)C(OC7OC(C)C(O)C(OS(=O)(=O)O)C7OS(=O)(=O)O)C6OS(=O)(=O)O)C(OS(=O)(=O)O)C5OS(=O)(=O)O)C4OS(=O)(=O)O)C(OS(=O)(=O)O)C3OS(=O)(=O)O)C2OS(=O)(=O)O)C(OS(=O)(=O)O)C1OS(=O)(=O)O (stereo not drawn)  thrombin time (human plasma; 128 µg/mL): 11.1 ± 0.8 s
COc1ccccc1-c1ccncc1C(=O)Nc1nnc(OCc2ccc(Cl)cc2)s1  colony count (DLD-1 parental; 2 µM): 68 and 78 and 70 and 80 and 79
Cc1cccc2c1N(C(=O)n1ccnn1)CC2  germination rate (Arabidopsis thaliana; kai2 mutant; 1 µM, 72 h): 68.9%
CCN(CC)CC(=O)Nc1cccc(-n2cc(-c3ccc4ccc(-c5cn(-c6cccc(NC(=O)CN(CC)CC)c6)nn5)cc4c3)nn2)c1  fold regulation (RCC4; PCR angiogenesis array, item: FLT1; 5 x IC50, 4 h, normoxia; reference: untreated): 1.06
C=CC(=O)N1[C@@H](c2ccc3c(c2)OCO3)c2[nH]c3ccccc3c2C[C@H]1C(=O)N1CCN(C)CC1  relative co-enrichment (human cyclin E1 N112C-3xFLAG:CDK2; co-IP with TMT proteomics, item: PRPF19; concentration not given, Q9UMS4; reference: wild type DMSO): 136%
CC(C)c1ccc(N(C)c2ccc3c(c2)OCC[C@H]3CNc2cnccc2C(=O)O)cc1  IC50 (SK-MEL3; cell growth or viability, ATP luminescence; 7 days): 472 nM
COC1OC(C)C(OC2OC(C)C(OS(=O)(=O)O)C(OS(=O)(=O)O)C2O)C(OS(=O)(=O)O)C1O (stereo not drawn)  thrombin time prolongation (human plasma; 128 µg/mL; reference: control): 0.9 fold
C=CC(=O)Nc1cccc(Cn2ncc3cnc(Nc4cnn(CCOC)c4)nc32)c1  percent of control (PAK7 human; binding, KINOMEscan; 100 nM; lower = stronger binding): 100%
